Assay results collected from several papers.
Compare with care: the assays were run in different laboratories. ± gives the spread as reported.
CYP3A4 S18F: Cytochrome P450 3A4 (CYP3A4, Homo sapiens, UniProt P08684, S18F)
Chain of UniProt P08684 (whole entry, unmodified, looked up): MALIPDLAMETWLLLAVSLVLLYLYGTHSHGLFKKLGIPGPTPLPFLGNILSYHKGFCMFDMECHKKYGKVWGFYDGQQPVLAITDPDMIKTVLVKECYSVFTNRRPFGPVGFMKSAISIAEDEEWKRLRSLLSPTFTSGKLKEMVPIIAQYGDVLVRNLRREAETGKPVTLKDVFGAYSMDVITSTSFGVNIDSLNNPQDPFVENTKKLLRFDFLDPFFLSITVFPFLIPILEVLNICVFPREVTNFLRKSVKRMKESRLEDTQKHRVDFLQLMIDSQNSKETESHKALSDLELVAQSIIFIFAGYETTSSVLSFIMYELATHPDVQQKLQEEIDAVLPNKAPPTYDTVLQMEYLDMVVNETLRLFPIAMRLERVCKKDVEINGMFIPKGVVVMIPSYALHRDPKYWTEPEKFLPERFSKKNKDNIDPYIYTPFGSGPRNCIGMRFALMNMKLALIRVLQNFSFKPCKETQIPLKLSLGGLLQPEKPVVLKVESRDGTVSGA
SLCO1B1: Solute carrier organic anion transporter family member 1B1 (SLCO1B1, Homo sapiens, UniProt Q9Y6L6)
Chain of UniProt Q9Y6L6 (whole entry, looked up): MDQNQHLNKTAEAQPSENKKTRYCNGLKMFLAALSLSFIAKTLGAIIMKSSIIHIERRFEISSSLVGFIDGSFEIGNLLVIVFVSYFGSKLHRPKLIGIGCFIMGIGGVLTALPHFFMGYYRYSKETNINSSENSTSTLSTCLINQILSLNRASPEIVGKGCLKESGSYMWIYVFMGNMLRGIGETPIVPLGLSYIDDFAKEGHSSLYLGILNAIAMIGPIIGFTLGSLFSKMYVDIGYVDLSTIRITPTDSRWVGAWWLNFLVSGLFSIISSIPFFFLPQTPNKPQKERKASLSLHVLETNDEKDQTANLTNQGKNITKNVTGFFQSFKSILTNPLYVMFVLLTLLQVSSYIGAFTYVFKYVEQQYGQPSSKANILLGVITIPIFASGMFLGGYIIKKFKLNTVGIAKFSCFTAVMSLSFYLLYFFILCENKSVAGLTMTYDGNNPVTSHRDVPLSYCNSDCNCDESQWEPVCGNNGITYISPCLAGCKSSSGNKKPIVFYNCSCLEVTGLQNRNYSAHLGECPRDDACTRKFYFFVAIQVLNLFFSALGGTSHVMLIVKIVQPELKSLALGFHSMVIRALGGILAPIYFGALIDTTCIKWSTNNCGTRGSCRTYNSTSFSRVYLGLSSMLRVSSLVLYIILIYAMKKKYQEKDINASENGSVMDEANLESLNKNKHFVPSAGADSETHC
CYP3A4: Cytochrome P450 3A4 (CYP3A4, Homo sapiens, UniProt P08684)
SLC5A1: Sodium/glucose cotransporter 1 (SLC5A1, Homo sapiens, UniProt P13866)
Chain of UniProt P13866 (whole entry, looked up): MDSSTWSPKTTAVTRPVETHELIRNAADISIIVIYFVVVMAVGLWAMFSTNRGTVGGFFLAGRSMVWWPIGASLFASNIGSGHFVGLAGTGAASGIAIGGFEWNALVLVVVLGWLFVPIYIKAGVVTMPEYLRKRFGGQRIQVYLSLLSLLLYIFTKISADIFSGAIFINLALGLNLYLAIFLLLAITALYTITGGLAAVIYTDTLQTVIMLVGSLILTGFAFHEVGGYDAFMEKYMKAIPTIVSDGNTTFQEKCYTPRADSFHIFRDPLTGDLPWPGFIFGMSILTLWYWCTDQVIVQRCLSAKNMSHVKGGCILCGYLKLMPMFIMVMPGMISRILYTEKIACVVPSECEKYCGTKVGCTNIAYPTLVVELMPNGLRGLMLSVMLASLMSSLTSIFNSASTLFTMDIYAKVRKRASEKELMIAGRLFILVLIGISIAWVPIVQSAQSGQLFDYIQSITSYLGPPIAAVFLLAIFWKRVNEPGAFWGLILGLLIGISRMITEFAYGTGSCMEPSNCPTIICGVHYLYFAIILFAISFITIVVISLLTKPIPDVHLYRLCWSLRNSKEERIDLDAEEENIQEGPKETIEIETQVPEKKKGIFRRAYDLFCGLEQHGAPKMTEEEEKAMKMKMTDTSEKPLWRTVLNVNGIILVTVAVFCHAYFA
Chain of UniProt P11509 (whole entry, looked up): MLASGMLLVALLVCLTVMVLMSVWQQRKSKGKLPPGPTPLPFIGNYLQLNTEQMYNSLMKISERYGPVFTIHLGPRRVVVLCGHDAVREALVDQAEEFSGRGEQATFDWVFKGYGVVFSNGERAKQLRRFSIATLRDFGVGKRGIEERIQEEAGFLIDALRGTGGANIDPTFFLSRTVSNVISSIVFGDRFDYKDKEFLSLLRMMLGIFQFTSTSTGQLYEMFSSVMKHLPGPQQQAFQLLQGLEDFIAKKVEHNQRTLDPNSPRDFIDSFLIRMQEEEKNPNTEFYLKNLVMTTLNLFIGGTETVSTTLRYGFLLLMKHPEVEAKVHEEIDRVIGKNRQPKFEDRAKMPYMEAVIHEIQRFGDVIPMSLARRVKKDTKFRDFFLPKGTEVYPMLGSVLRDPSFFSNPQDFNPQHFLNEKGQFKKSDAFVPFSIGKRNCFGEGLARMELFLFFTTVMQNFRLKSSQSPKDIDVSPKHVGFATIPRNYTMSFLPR
Chain of UniProt O94956 (whole entry, looked up): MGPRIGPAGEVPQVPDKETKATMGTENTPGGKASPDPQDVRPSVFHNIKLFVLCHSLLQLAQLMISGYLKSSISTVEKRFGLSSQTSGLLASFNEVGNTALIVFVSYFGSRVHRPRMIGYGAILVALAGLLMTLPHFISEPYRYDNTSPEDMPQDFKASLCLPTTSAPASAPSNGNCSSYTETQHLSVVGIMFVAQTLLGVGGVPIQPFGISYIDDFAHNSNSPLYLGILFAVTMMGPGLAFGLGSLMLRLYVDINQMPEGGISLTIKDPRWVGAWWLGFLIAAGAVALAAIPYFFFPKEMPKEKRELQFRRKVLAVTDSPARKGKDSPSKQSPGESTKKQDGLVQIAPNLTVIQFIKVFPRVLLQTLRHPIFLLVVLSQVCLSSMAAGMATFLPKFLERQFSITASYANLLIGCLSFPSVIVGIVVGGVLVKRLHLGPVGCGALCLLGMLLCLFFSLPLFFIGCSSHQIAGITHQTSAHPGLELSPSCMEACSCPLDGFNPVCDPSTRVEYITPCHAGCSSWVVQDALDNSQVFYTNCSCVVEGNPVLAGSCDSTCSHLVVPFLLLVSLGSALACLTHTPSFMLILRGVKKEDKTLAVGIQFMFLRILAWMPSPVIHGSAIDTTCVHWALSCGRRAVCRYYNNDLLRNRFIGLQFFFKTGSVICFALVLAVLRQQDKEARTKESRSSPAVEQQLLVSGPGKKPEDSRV
Chain of UniProt P02769 (whole entry, looked up): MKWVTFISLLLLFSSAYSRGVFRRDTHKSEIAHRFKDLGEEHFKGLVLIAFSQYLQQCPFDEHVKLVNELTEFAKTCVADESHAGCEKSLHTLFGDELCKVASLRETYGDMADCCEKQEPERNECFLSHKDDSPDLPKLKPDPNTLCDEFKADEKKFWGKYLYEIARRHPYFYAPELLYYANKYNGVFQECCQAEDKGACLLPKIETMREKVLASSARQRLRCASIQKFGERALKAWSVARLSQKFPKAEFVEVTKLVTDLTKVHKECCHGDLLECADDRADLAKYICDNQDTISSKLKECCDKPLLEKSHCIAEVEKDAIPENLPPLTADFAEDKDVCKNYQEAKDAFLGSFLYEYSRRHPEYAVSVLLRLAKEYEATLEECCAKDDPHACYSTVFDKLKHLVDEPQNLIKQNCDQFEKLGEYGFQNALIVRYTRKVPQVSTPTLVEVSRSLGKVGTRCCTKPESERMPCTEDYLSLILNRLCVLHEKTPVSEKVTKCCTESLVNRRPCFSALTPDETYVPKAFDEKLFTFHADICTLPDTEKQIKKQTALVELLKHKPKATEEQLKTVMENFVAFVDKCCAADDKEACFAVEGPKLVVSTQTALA
Chain of UniProt Q9UNU6 (whole entry, looked up): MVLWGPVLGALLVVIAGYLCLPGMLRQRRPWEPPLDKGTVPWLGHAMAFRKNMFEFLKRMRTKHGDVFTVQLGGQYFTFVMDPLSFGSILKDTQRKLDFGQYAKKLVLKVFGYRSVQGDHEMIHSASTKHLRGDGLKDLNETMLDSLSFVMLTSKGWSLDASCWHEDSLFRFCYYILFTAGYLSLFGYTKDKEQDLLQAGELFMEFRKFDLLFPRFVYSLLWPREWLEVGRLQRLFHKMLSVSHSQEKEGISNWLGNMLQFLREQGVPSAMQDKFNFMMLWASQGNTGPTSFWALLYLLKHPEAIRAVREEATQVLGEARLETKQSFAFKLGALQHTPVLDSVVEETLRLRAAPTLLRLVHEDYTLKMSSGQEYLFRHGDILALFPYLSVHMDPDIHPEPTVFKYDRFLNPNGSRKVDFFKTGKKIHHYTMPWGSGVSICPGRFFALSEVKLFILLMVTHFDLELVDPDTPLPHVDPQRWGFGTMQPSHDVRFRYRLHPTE

SMILES | target | test | system | conditions | how to read | measurement | result
NC(=O)N1c2ccccc2C=Cc2ccccc21 | CYP3A4 S18F | substrate | nanodiscs with CPR | one substrate bound | – | NADPH oxidation rate | 195 nmol/nmol P450/min
CN(C)Cc1cc(OCCC[18F])ccc1Sc1ccccc1N | SERT | – | male Sprague Dawley rat, control, cortex | intravenous, 60 min | – | tissue uptake | 0.49 ± 0.12 %ID/g
O=C(O)c1cc2cc(O)ccc2n1Cc1ccc(Cl)c(C(F)(F)F)c1 | SLCO1B1 | estradiol 17β-glucuronide uptake, inhibitor | HEK293 expressing OATP1B1 | 30 µM, added: [3H]-estradiol 17β-glucuronide | baseline: DMSO control | remaining activity | 0%
C=CC(=O)N1CCC([C@@H]2CCNc3c(C(N)=O)c(-c4ccc(Oc5ccccc5)cc4)nn32)CC1 | SLCO1B1 | transport, item: estradiol-17β-glucuronide uptake | HEK293 transfected | 0.2 µM | baseline: vehicle | remaining activity | 97.9 ± 9.5%
C#C[C@]1(O)CC[C@H]2[C@@H]3CCC4=CC(=NO)CC[C@@H]4[C@H]3CC[C@@]21CC (mixture of isomers) | CYP3A4 | – | human, plasma | oral, dose not given, oral contraceptive, day 21, added: EDP-305 2.5 mg | – | AUC(0-t) | 25.6 ng·h/mL
CC(=O)[C@H]1CC[C@H]2[C@@H]3CCC4=CC(=O)CC[C@]4(C)[C@H]3CC[C@]12C | CYP3A4 S18F | substrate | nanodiscs with CPR | two substrates bound | – | NADPH oxidation rate | 388 nmol/nmol P450/min
OC[C@H]1O[C@@H](Oc2cc3c(O)cc(O)cc3[o+]c2-c2ccc(O)c(O)c2)[C@H](O)[C@@H](O)[C@@H]1O | SLC5A1 | – | Caco-2 BBe1, SLC5A1 siRNA knockdown | 50 µM, 4 h | baseline: scrambled siRNA over knockdown | transport rate reduction | 6.35 fold
C#CCOc1ccc2ccc(=O)oc2c1 | human CYP3A4 | enzyme inactivation, inactivator | reconstituted system | added: BFC O-debenzylation substrate | – | KI | 112 µM
C[C@@H]1O[C@@H](OC[C@H]2O[C@@H](Oc3c(-c4ccc(O)c(O)c4)oc4cc(O)cc(O)c4c3=O)[C@H](O)[C@@H](O)[C@@H]2O)[C@H](O)[C@H](O)[C@H]1O | SLC5A1 | – | Caco-2 BBe1, SLC5A1 siRNA knockdown | 50 µM, 4 h | baseline: scrambled siRNA over knockdown | transport rate reduction | 2.6 fold
OC(Cn1cncn1)(Cn1cncn1)c1ccc(F)cc1F | 7-alpha-hydroxycholest-4-en-3-one 12-alpha-hydroxylase (Homo sapiens, UniProt Q9UNU6) | – | – | 80 µM, added: 7α-hydroxycholest-4-en-3-one | baseline: no inhibitor | remaining activity | no inhibition
CC(=O)c1cc(C(=O)N[C@@H](C)Cn2ccc(-c3ccc(C#N)c(Cl)c3)n2)[nH]n1 | SLCO2B1 (Homo sapiens, UniProt O94956) | transporter uptake, inhibitor | – | – | – | IC50 | > 10 µM
Cn1c(=O)[nH]c2ncn(C)c2c1=O | UDP-glucuronosyltransferases | – | human cirrhosis patients | – | baseline: without cirrhosis | glucuronide metabolic ratio | decreased
CC1=N[C@]2(C(=O)CO)[C@@H](C[C@H]3[C@@H]4C[C@@H](O)C5=CC(=O)C=C[C@]5(C)[C@H]4[C@@H](O)C[C@@]32C)O1 | CYP3A4 | enzyme activity, inhibitor | pooled human liver microsomes | 30 min preincubation without NADPH, added: testosterone substrate | – | IC50 | > 50 µM
Cc1coc2c1CC[C@@H](C)C2 | Cytochrome P450 2A6 (CYP2A6, Homo sapiens, UniProt P11509) | inactivator | – | 5 µM, 10 min, pH 7.4, 30 °C, added: NADPH, glutathione 10 mM | – | remaining activity | 56 ± 3%
COCCc1ccc(OCC(O)CNC(C)C)cc1 (stereo not drawn) | Albumin (ALB, Bos taurus, UniProt P02769) | ultrafiltration | Bos taurus, albumin solution | 2 µg/mL, 60 min, added: atractylenolide III 0.1 µg/mL | – | unbound fraction | 0.698

Excerpt of the above:
SMILES | target | test | system | conditions | how to read | measurement | result
C[C@@H]1O[C@@H](OC[C@H]2O[C@@H](Oc3c(-c4ccc(O)c(O)c4)oc4cc(O)cc(O)c4c3=O)[C@H](O)[C@@H](O)[C@@H]2O)[C@H](O)[C@H](O)[C@H]1O | SLC5A1 | – | Caco-2 BBe1, SLC5A1 siRNA knockdown | 50 µM, 4 h | baseline: scrambled siRNA over knockdown | transport rate reduction | 2.6 fold
